# Published values from different studies.
# Each line is one published result; not all experiments were run side by side. ± gives the spread as reported.
SMILES,tested on,assay,test system,setting,scale,endpoint,value
CCCCCCCCCCCCCC[C@@H](O)[C@@H](O)[C@H](CO[C@H]1O[C@H](CO)[C@H](O)[C@H](O)[C@H]1O)NC(=O)CCCCCCCCCCc1ccccc1,human Vα24+ NKT cells,"agonist, ELISA",,"10 ng/mL, 24 h, unit not given, with: CD1d-transfected HeLa cells",relative to: α-GalCer,IL-4 secretion,0.87 ± 0.28
Cc1cc(Nc2ncc3c(n2)N(C)C(=O)N(c2cc(NC(=O)c4cccc(C(F)(F)F)c4)ccc2C)C3)n(C)n1,Huh-7 (FGFR4 overexpressing),"cell proliferation, CellTiter-Glo",,72 h,,GI50,56 ± 30 nM
CCCCCCCCCCCCCC[C@@H](O)[C@@H](O)[C@H](CO[C@H]1O[C@H](CO)[C@H](O)[C@H](O)[C@H]1O)NC(=O)CCCCCCCCCc1ccccc1,human Vα24+ NKT cells,agonist,,"10 ng/mL, 24 h, with: CD1d-transfected HeLa cells",relative to: α-GalCer,IFN-γ/IL-4 ratio,1.46 ± 0.15
COC(=O)[C@@]1(C)C=C(C(=O)Nc2cccc(C(=O)NC34CC(Nc5nccc(-c6cccnc6)n5)(C3)C4)c2)C(=O)CC1,HEK293 AP1 reporter cells,"reporter gene, inhibitor, luciferase reporter",,"3 µM, 6 h, unit not given, with: PMA",relative to: PMA-stimulated,AP1 reporter activity,0.215
CC(C)CN(CC(=O)N(CC(=O)N(CC(=O)N(CC(=O)N(CC(=O)N(CC(=O)N(CC(N)=O)Cc1ccccc1)Cc1ccccc1)CC(C)C)Cc1ccccc1)Cc1ccccc1)CC(C)C)C(=O)CNCCCCN,THP-1 derived macrophages,ELISA,,"2, 10, 50 µM, 72 h, with: LPS 2 ng/mL",,"IL-1β, IL-6, IL-8 release",decreased
C=CC(=O)Nc1cccc(N(C(=O)OCc2ccc(F)cc2)c2ccnc(Nc3ccn(C)n3)n2)c1,Ba/F3 HER2 YVMA insertion,cell growth,,inactive means EC50 above 10 µM,,EC50,31 ± 3.4 nM
O=C(N/N=C/c1ccc(Sc2ncccn2)o1)c1cccc(Cl)c1,D458 medulloblastoma,cell growth,,,,GI50,54000 nM
CCCCCCCCCCCCCC[C@@H](O)[C@@H](O)[C@H](CO[C@H]1O[C@H](CO)[C@H](O)[C@H](O)[C@H]1O)NC(=O)CCCCCc1ccccc1,human Vα24+ NKT cells,"agonist, ELISA",,"10 ng/mL, 24 h, unit not given, with: CD1d-transfected HeLa cells",relative to: α-GalCer,IL-4 secretion,0.73 ± 0.16
CN1CCN(c2cc(C(=O)Nc3ccc4c(c3)-c3c(c(C(N)=O)nn3-c3ccc(F)cc3)CC4)c(Cl)cn2)CC1,rheumatoid arthritis synovial fibroblasts,proximity ligation,,,,NEMO-IKK-2 interaction,no effect
CC(=O)N1CCN(c2ccc(Nc3ncc4c(n3)N(C)C(=O)N(c3cc(NC(=O)c5cccc(C(F)(F)F)c5)ccc3C)C4)cn2)CC1,Huh-7 (FGFR4 overexpressing),"cell proliferation, CellTiter-Glo",,72 h,,GI50,21 ± 10 nM
O=C(N[C@H](Cc1ccccc1)C(=O)O)c1sc2cc(F)ccc2c1Cl,RAW264.7,"TNF-α production, ELISA",,"10 µM, with: poly(I:C)",,inhibition,~60%
CCOc1cc(C(C)(C)C)ccc1C1=N[C@@H](c2ccc(Cl)cc2)[C@@H](c2ccc(Cl)cc2)N1C(=O)N1CCN(CC(=O)NCCOCCOCCOCCNC(=O)CN2CCN(C(=O)N3C(c4ccc(C(C)(C)C)cc4OCC)=N[C@H](c4ccc(Cl)cc4)[C@@H]3c3ccc(Cl)cc3)CC2=O)C(=O)C1,A549,"cell growth, CCK-8",,,,IC50,8300 ± 2200 nM
CCOc1ccccc1Nc1nnc(SCC(=O)Nc2cc(F)ccc2F)s1,co-cultured human PBMCs,,MucilAir airway epithelium,"5 µM, 48 h, with: anti-CD3/CD28",,IL-2 secretion,382 ± 18 pg/mL
CC(=O)N1CCN(c2ccc(Nc3ncc4c(n3)N(C)C(=O)N(c3cc(NC(=O)c5ccc(CN6CCC(N(C)C)C6)c(C(F)(F)F)c5)ccc3C)C4)cn2)CC1 (centres unmarked),SK-HEP1,"colony formation, inhibitor, soft agar",,"5 µM, 3 weeks",,inhibition,40%
CN1c2ccc(F)cc2C(=O)N2CCc3c([nH]c4ccc(OCc5cccc(C(=O)NO)c5)cc34)C21 (centres unmarked),"HCT-116, MCF7, A549 cells",CCK-8,,concentration not given,,antiproliferative activity,inactive
CCN1CCN(c2ccc(Nc3ncc4c(n3)N(C)C(=O)N(c3cc(NC(=O)c5cccc(C(F)(F)F)c5)ccc3C)C4)cc2)CC1,HepG2 (FGFR4 overexpressing),"cell proliferation, CellTiter-Glo",,72 h,,GI50,342 ± 200 nM
CCOc1ccc(S(=O)(=O)NC(=O)Cc2ccc(I)cc2)cc1Br,THP-1,"cGAMP level, item: cGAMP",cell lysate,30 µM,,inhibition,27%
CC(=O)OC1CC[C@H]2C3=C(CC[C@]12C)[C@]1(C)c2c(coc2C3=O)[C@H](OC(C)=O)[C@@H]2O[C@@H]21 (some centres unmarked),MDA-MB-231,DCFH-DA fluorescence,,"concentration not given, unit not given",relative to: untreated,ROS level,1.62
Cc1ccc(NC(=O)c2ccc(CN3CCC(N(C)C)C3)c(C(F)(F)F)c2)cc1N1Cc2cnc(Nc3cnn(C)c3)nc2N(C)C1=O (centres unmarked),HepG2 (FGFR4 overexpressing),"cell proliferation, CellTiter-Glo",,72 h,,GI50,405 ± 150 nM
Nc1ccc2cc(N)ncc2c1,LX-2,"western blot, item: collagen I",,"concentration not given, with: TGF-β1",,protein level,decreased
CCN1CCN(c2ccc(Nc3ncc4c(n3)N(C)C(=O)N(c3cc(NC(=O)c5cccc(C(F)(F)F)c5)ccc3C)C4)cn2)CC1,Hep3B (FGFR4 overexpressing),"cell proliferation, CellTiter-Glo",,72 h,,GI50,139 ± 20 nM
CCCCCCCCCCCCCC[C@@H](O)[C@@H](O)[C@H](CO[C@H]1O[C@H](CO)[C@H](O)[C@H](O)[C@H]1O)NC(=O)CCCCCCCCCCCCCCc1ccccc1,human Vα24+ NKT cells,"agonist, ELISA",,"10 ng/mL, 24 h, unit not given, with: CD1d-transfected HeLa cells",relative to: α-GalCer,IL-4 secretion,0.71 ± 0.1
CCCCCCCCCCCCCCCCNNC(=O)c1ccc(N(C)C)cc1,HEK293T,immunoblot,,"up to 50 µM, 6 h",,histone H3 acetylation,no effect
CC(=NN=c1[nH]c2cc(F)c(F)cc2n1C)c1ccc(F)cn1,ER+ breast cancer PDX organoids,"organoid growth, inhibitor",,two weeks,,effective concentration,62.5 nM
Cc1ccccc1C(C(=O)NC1CCCCC1)N(C(=O)Cn1ccnc1C)c1cccc([125I])c1 (racemic),IDH1 R132H astrocytoma cells,cell uptake,,no-carrier-added radiotracer,relative to: mutant over wild-type cells,uptake ratio,1.7 to 2.1 fold
O=C(N/N=C/c1ccc(Sc2ncccn2)o1)c1cccc(Br)c1,D458 medulloblastoma,cell growth,,,,GI50,> 100000 nM
CN(C)C(=O)Cn1cc(-c2ccc(-c3cncc4ccncc34)cc2)cn1,HL-60 with human NK cells,"ADCC, chromium-51 release",,"concentration not given, with: CD33 antibody BI 836858",relative to: vehicle-treated NK cells,increase in lysis,25 to 75%
O=C(N/N=C/c1ccc(Sc2ccccn2)s1)c1ccccc1Cl,D458 medulloblastoma,cell growth,,,,GI50,2300 nM
Cc1ccccc1OCCCSCc1nc2ccccc2[nH]1,SW620-GFP+ organoids,"reporter gene, activator, item: E-cadherin RFP reporter",,,relative to: untreated,EC 2-fold increase,35.4 µM
CN1CCN(c2ccc(-c3cccc(CN4CCN(CCNC(=O)CCCCCCCNc5cccc6c5C(=O)N(C5CCC(=O)NC5=O)C6=O)CC4)c3)cc2NC(=O)c2c[nH]c(=O)cc2C(F)(F)F)CC1 (centres unmarked),MV4;11,GRO-seq,,"0.5 µM, 4 d, unit not given",relative to: DMSO,transcriptionally suppressed genes,189
O=C1Nc2cccc(C#CC3(O)CCNCC3)c2/C1=C/c1cc2ccccc2[nH]1,Src-transformed 3T3 cells,"time-lapse microscopy, item: TKS5 vesicles",,"100 nM, 1 min",relative to: total vesicles,motile vesicle fraction,6%
"C=CC(=O)N1CCC(c2cc(Nc3cc4n(n3)CCOC4)c3ncnn3c2)C1 (single isomer, unassigned)",TMD8,"calcium flux, FLIPR",,"1 h preincubation, with: anti-IgM",,maximum inhibition,13.1%
O=C(NNC(=S)Nc1cccc(C(F)(F)F)c1)c1cccn1-c1ccc(F)cc1,HeLa expressing tau-0N4R,"western blot, item: phosphorylated tau",,concentration not given,,time to p-tau reduction,1 h
Cc1ccc(NC(=O)c2cccc(C(F)(F)F)c2)cc1N1Cc2cnc(Nc3cnn(C)c3)nc2N(C)C1=O,Hep3B (FGFR4 overexpressing),"cell proliferation, CellTiter-Glo",,72 h,,GI50,252 ± 160 nM
CCCCCCCCCCCCCC[C@@H](O)[C@@H](O)[C@H](CO[C@H]1O[C@H](CO)[C@H](O)[C@H](O)[C@H]1O)NC(=O)CCCCCCCCCCc1ccc(F)cc1,human Vα24+ NKT cells,"agonist, ELISA",,"10 ng/mL, 24 h, unit not given, with: CD1d-transfected HeLa cells",relative to: α-GalCer,IFN-γ secretion,2.13 ± 0.003
COc1cc([C@@H]2c3cc4c(cc3C=C(C=O)[C@H]2C(=O)OCc2ccc(CBr)cc2)OCO4)cc(OC)c1OC,Leishmania,,mouse splenocytes,,relative to: CC50 over amastigote EC50,selectivity index,0.7
CCCCCCCCCCCCCC[C@@H](O)[C@@H](O)[C@H](CO[C@H]1O[C@H](CO)[C@H](O)[C@H](O)[C@H]1O)NC(=O)CCCCCCCCCCc1ccc(C(F)(F)F)cc1,human Vα24+ NKT cells,agonist,,"10 ng/mL, 24 h, with: CD1d-transfected HeLa cells",relative to: α-GalCer,IFN-γ/IL-4 ratio,1.89 ± 0.22
Cc1nn(C)c2c(C(C(=O)O)N3CC(OCCCCc4ccc5c(n4)NCCC5)C3)cccc12 (centres unmarked),PAH PASMCs,Western blot,,,,ILK phosphorylation,no effect
COC(=O)[C@@H]1C(C=Nc2nccs2)=Cc2cc3c(cc2[C@H]1c1cc(OC)c(OC)c(OC)c1)OCO3,Leishmania infantum,iRFP fluorescence,"mouse splenocytes infected, amastigote, iRFP, ex vivo splenic explant",48 h,,EC50,7500 ± 500 nM
CCCCCCCCCCCCCC[C@@H](O)[C@@H](O)[C@H](CO[C@H]1O[C@H](CO)[C@H](O)[C@H](O)[C@H]1O)NC(=O)CCCCCCCc1ccc(-c2ccccc2)cc1,human Vα24+ NKT cells,agonist,,"10 ng/mL, 24 h, with: CD1d-transfected HeLa cells",relative to: α-GalCer,IFN-γ/IL-4 ratio,0.3 ± 0.01
COc1ccc(CCC2OC(=O)C3CCCCN3C(=O)C(=O)C(C)(C)COC(=O)C=CCCN(C)C(=O)CNC(=O)C(COC(C)(C)C)N(C)C(=O)C(Cc3ccc4ccccc4c3)NC(=O)C(C)N(C)C(=O)COc3cccc2c3)cc1OC (centres unmarked),A549,alamar blue,,concentration not given,,viability,active

# A few entries again:
SMILES,tested on,assay,test system,setting,scale,endpoint,value
CN(C)C(=O)Cn1cc(-c2ccc(-c3cncc4ccncc34)cc2)cn1,HL-60 with human NK cells,"ADCC, chromium-51 release",,"concentration not given, with: CD33 antibody BI 836858",relative to: vehicle-treated NK cells,increase in lysis,25 to 75%
Cc1ccccc1OCCCSCc1nc2ccccc2[nH]1,SW620-GFP+ organoids,"reporter gene, activator, item: E-cadherin RFP reporter",,,relative to: untreated,EC 2-fold increase,35.4 µM
CCCCCCCCCCCCCCCCNNC(=O)c1ccc(N(C)C)cc1,HEK293T,immunoblot,,"up to 50 µM, 6 h",,histone H3 acetylation,no effect
Cc1nn(C)c2c(C(C(=O)O)N3CC(OCCCCc4ccc5c(n4)NCCC5)C3)cccc12 (centres unmarked),PAH PASMCs,Western blot,,,,ILK phosphorylation,no effect
CCOc1ccc(S(=O)(=O)NC(=O)Cc2ccc(I)cc2)cc1Br,THP-1,"cGAMP level, item: cGAMP",cell lysate,30 µM,,inhibition,27%
